Measurements gathered from unrelated publications.
Each numbered part is a random draw from the data of one study; scales do not carry over between parts. Several values in a cell are separate wells, animals, samples, runs or records. Changes are numbered by the printed parent chain.
Chain of UniProt P42336 (whole entry, unmodified, looked up): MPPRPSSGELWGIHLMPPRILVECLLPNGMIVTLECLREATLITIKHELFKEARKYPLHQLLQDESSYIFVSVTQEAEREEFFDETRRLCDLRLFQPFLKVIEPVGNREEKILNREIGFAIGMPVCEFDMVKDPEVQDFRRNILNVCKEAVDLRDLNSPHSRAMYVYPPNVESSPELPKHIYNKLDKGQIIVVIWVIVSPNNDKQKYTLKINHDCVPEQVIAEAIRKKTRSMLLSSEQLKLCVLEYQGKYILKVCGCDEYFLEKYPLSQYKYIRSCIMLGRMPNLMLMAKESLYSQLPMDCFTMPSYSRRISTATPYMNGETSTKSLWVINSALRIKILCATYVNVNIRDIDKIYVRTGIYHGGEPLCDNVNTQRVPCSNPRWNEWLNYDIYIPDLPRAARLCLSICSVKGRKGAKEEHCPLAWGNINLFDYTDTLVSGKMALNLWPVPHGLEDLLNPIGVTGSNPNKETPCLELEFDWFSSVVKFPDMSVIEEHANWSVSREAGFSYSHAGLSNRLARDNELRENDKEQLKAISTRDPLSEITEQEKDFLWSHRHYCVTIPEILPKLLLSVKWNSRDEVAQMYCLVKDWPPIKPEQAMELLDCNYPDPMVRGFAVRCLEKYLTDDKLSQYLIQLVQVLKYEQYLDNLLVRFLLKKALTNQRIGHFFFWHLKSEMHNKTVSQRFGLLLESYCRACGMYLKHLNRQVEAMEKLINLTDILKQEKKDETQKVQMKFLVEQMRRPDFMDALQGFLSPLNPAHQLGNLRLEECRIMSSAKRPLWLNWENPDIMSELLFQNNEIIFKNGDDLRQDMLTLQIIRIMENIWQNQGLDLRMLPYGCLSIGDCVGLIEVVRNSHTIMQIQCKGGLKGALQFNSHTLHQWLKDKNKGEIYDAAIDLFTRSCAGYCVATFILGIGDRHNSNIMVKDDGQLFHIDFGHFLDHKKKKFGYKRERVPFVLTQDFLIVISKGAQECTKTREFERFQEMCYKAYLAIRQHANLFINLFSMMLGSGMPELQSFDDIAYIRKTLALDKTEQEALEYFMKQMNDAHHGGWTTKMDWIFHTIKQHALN
Chain of UniProt Q9BVS4 (whole entry, looked up): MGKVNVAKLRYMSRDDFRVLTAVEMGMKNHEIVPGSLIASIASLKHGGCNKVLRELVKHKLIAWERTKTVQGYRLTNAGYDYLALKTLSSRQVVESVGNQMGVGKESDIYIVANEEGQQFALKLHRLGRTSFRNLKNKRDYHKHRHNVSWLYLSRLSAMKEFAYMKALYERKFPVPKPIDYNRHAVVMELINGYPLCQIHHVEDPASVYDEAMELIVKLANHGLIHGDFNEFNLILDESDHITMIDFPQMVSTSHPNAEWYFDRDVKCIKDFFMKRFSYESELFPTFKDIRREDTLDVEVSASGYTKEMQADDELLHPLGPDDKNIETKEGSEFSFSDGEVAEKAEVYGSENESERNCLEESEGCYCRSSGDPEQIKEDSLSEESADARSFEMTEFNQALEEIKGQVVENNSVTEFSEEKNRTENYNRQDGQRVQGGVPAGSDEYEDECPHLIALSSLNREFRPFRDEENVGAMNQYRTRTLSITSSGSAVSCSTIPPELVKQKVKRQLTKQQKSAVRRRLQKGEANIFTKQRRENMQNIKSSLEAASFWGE
Chain of UniProt Q9BWU1 (whole entry, looked up): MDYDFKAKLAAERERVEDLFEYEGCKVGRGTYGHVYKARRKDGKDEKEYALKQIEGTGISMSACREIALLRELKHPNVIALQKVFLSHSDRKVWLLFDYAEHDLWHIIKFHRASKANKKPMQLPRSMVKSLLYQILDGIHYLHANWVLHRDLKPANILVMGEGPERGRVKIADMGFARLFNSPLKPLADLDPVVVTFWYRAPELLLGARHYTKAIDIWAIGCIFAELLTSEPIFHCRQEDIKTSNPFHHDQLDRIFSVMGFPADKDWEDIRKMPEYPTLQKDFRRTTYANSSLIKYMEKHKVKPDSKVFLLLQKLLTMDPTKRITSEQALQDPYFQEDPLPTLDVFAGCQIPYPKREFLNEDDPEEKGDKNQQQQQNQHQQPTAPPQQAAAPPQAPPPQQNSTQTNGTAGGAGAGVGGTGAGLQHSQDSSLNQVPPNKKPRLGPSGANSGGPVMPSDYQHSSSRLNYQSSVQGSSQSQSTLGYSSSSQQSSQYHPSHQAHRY
Chain of UniProt Q13163 (whole entry, looked up): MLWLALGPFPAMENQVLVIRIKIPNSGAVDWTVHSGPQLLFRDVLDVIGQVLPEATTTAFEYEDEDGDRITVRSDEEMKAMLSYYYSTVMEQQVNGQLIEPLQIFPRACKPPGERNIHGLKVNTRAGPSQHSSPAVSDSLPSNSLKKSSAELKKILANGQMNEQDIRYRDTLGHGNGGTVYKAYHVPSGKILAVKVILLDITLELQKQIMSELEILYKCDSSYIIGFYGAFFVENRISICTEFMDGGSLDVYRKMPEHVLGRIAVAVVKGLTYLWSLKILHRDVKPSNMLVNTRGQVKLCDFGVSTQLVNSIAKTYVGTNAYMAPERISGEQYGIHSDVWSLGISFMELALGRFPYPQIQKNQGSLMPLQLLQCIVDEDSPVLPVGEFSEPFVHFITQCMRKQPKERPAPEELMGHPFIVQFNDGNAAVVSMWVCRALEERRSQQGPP
Chain of UniProt P08631 (whole entry, looked up): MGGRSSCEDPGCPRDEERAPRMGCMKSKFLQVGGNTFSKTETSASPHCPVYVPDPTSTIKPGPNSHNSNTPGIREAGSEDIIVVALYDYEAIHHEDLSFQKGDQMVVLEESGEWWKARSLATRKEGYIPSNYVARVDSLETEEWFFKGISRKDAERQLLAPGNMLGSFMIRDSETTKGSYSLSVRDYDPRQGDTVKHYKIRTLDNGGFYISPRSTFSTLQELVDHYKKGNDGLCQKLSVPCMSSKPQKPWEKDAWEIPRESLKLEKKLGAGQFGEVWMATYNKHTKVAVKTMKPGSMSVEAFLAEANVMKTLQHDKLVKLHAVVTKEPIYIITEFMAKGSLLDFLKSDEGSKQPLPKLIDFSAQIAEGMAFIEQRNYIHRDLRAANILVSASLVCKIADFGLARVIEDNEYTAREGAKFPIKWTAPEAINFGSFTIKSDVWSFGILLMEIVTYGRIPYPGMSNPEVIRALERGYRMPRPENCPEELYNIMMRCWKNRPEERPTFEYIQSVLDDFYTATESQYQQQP
Chain of UniProt O94804 (whole entry, looked up): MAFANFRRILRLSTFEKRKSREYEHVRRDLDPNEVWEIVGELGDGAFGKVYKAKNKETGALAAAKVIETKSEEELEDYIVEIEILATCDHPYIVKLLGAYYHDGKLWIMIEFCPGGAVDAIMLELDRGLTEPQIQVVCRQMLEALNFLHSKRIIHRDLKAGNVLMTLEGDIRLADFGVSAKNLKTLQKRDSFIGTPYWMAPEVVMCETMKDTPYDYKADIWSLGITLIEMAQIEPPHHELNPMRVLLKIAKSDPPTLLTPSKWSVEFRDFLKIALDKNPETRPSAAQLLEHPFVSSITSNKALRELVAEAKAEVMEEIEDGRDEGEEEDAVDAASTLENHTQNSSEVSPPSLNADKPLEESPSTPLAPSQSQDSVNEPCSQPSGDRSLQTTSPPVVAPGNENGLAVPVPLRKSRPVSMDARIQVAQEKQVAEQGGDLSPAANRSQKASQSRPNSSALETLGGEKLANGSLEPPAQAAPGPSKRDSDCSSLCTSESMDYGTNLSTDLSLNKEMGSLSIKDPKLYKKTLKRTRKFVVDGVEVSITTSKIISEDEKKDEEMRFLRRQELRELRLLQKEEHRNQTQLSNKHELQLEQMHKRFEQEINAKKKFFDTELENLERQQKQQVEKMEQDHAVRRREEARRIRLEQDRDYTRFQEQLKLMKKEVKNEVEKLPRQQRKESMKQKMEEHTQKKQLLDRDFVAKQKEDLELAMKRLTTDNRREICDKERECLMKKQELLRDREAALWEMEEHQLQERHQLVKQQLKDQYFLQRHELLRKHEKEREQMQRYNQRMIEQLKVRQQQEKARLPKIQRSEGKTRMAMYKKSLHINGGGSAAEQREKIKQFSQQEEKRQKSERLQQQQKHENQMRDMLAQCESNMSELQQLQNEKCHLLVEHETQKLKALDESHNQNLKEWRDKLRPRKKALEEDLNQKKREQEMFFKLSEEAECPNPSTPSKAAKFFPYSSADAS
Chain of UniProt Q9BXA7 (whole entry, looked up): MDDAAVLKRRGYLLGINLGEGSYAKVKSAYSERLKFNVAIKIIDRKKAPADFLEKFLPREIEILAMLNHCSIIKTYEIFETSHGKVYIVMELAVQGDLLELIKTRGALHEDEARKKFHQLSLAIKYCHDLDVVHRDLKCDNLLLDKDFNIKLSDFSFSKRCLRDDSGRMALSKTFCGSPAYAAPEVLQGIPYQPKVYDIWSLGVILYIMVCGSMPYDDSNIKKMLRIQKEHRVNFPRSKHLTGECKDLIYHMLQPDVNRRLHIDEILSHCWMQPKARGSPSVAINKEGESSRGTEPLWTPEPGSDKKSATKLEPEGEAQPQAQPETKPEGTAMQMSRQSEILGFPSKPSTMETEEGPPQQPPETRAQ
Chain of UniProt Q15208 (whole entry, looked up): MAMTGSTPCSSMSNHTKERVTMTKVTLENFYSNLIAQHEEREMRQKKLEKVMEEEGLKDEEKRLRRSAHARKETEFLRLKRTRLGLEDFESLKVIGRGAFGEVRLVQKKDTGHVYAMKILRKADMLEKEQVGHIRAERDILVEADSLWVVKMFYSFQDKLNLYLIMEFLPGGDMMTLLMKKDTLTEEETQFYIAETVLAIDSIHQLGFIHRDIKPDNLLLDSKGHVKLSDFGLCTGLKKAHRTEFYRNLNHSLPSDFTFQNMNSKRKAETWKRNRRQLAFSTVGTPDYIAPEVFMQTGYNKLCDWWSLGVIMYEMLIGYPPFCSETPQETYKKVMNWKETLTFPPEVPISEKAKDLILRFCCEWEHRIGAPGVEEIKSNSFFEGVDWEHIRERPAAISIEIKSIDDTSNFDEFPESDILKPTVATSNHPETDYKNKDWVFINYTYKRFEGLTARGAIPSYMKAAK

Set 1
Cell line: mouse MPNST tumor cells
Method: high-content immunofluorescence imaging
Refers to: nuclear SOX9
Concentration: 10 µM
Time: 12 h
Setting: mean of 2 replicates
Reference: DMSO control
Reading: higher = more nuclear SOX9
SMILES | nuclear SOX9 intensity
CN1CCN(c2c(F)cc3c(=O)c(C(=O)O)cn4c3c2SCC4)CC1 | 110 % of DMSO
Nc1ccn([C@@H]2O[C@H](CO)[C@@H](O)C2(F)F)c(=O)n1 | 115 % of DMSO and 108 % of DMSO
COC(=O)N/N=C/c1c[n+]([O-])c2ccccc2[n+]1[O-] | 99.2 % of DMSO

Set 2
Target: TAR DNA-binding protein 43, full length, His tag (TARDBP, Homo sapiens, UniProt Q13148, residues 1-414)
Method: RNA Bind-n-Seq
Form: RNA
Sample: in vitro
Concentration: 20 nM
Setting: 6-mer, flanks averaged, single round
Together with: 150 mM LiCl
Reference: input library
Reading: higher = stronger binding
Oligonucleotide | 6-mer enrichment (R)
AGGCAU | 0.883
GAUUUC | 0.852
AAAGAG | 0.936
AGAAGA | 0.919
GUACCA | 0.875
GGUUGC | 1.12
CGAGAC | 0.886
UGUUCG | 1.05

Set 3
SMILES: Cc1c(C(=O)O)cc(-c2ccc(C3CCNCC3)cc2)c2ccc(-c3ccc(C(F)(F)F)cc3)cc12
Concentration: 1 µM
target | test | remaining binding [%]
TNIK (Homo sapiens, UniProt Q9UKE5) | binding, competition with immobilised ligand | 100
CDK19 (Homo sapiens, UniProt Q9BWU1) | competition binding | 100
DAPK3 (Homo sapiens, UniProt O43293) | binding, competition with immobilised ligand | 100
MET (Homo sapiens, UniProt P08581, M1250T) | cell-free assay, competition with immobilised ligand | 97
PIK3CA (Homo sapiens, UniProt P42336, E542K) | cell-free assay, competition with immobilised ligand | 99
PIK3CA (Homo sapiens, UniProt P42336, Q546K) | cell-free assay, competition with immobilised ligand | 100
MAP2K5 (Homo sapiens, UniProt Q13163) | binding, competition with immobilised ligand | 100
TSSK1B (Homo sapiens, UniProt Q9BXA7) | binding, competition with immobilised ligand | 100
STK38 (Homo sapiens, UniProt Q15208) | binding, competition with immobilised ligand | 84
HCK (Homo sapiens, UniProt P08631) | cell-free assay, competition with immobilised ligand | 100
BMPR2 (Homo sapiens, UniProt Q13873) | cell-free assay, competition with immobilised ligand | 100
WNK1 (Homo sapiens, UniProt Q9H4A3) | binding, competition with immobilised ligand | 100
CLK3 (Homo sapiens, UniProt P49761) | binding, competition with immobilised ligand | 100
MAP2K2 (Homo sapiens, UniProt P36507) | binding, competition with immobilised ligand | 100
Non-receptor tyrosine-protein kinase TYK2, JH2 (TYK2, Homo sapiens, UniProt P29597) | binding, competition with immobilised ligand | 100
PIM1 (Homo sapiens, UniProt P11309) | binding, competition with immobilised ligand | 100
STK10 (Homo sapiens, UniProt O94804) | binding, competition with immobilised ligand | 100
RIOK2 (Homo sapiens, UniProt Q9BVS4) | binding, competition with immobilised ligand | 100

Set 4
Target: OGT, full length, His-tagged (human)
Method: phage display, sequencing
Sample: in vitro
Concentration: 1 µg OGT
Setting: single substitutions, 15-mer displayed peptide, unchanged parent 16.7
Reference: input library
Reading: higher = stronger binding
Starting sequence: peptide; NSEYMPQYQIIFAHQ
Substitution | fold enrichment [fold]
NSEYMPQYHIIFAHQ [Q9H] | 1.64
NSEYMPQIQIIFAHQ [Y8I] | 2.76
NSEYMPQYVIIFAHQ [Q9V] | 2.02
NSELMPQYQIIFAHQ [Y4L] | 7.02
NLEYMPQYQIIFAHQ [S2L] | 15.9
NSIYMPQYQIIFAHQ [E3I] | 17.7
NSEYMPQYQIIRAHQ [F12R] | 0.673
NSEYKPQYQIIFAHQ [M5K] | 10.2

Further values, each from its own experiment
Structure (SMILES) | tested on | test | test system | setting | how to read | measurement | value
CC[N+](C)(CC)CCOC(=O)C(O)(c1ccccc1)C1CCCCC1.[Br-] (centres unmarked) | Sarcocystis neurona | parasite growth | – | concentration not given, first screen | reference: untreated | log2 fold change | -0.24
COc1cc(C(=O)Nc2cnn(CCCC(=O)O)c2)cc(OC)c1OC | – | – | human, microsomes or S9 | 2 µM, 0.5 h | – | remaining compound | > 99.9%
CC(C)n1cnc(-c2ccc(F)cc2)c1-c1ncc(C(=O)Nc2ccc(N3CCN(C)CC3)cc2)[nH]1 | – | phase 2a trial | patients with idiopathic pulmonary fibrosis | 60 mg once daily, atopic dermatitis, grade 5 | – | patients with TEAE | 0%
C[C@]12CCC(=O)C=C1CC[C@@H]1[C@@H]2[C@@H](O)C[C@@]2(C)[C@H]1CC[C@]2(O)C(=O)COC(=O)CCC(=O)O | Sarcocystis neurona | parasite growth | – | concentration not given, first screen | reference: untreated | log2 fold change | 0.00573

Repeated from above (set 3):
target | test | remaining binding [%]
BMPR2 (Homo sapiens, UniProt Q13873) | cell-free assay, competition with immobilised ligand | 100
WNK1 (Homo sapiens, UniProt Q9H4A3) | binding, competition with immobilised ligand | 100
CLK3 (Homo sapiens, UniProt P49761) | binding, competition with immobilised ligand | 100
